Measured values collected from several papers.
A part holds a random share of what one study measured.
UniProt P41595, sequence (whole entry, looked up): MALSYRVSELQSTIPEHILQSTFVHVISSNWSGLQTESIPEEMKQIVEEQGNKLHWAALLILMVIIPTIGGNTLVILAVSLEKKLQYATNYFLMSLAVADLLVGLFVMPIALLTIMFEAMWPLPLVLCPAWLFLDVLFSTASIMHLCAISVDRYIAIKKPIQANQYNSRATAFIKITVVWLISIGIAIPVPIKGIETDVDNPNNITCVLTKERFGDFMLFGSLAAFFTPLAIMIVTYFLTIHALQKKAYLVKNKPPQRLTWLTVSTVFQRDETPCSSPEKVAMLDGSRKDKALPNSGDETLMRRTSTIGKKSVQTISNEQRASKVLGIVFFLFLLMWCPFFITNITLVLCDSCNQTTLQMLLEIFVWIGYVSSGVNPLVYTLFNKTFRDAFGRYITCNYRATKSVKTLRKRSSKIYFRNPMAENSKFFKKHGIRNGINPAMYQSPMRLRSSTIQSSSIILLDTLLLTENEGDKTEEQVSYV
UniProt Q9H3N8, sequence (whole entry, looked up): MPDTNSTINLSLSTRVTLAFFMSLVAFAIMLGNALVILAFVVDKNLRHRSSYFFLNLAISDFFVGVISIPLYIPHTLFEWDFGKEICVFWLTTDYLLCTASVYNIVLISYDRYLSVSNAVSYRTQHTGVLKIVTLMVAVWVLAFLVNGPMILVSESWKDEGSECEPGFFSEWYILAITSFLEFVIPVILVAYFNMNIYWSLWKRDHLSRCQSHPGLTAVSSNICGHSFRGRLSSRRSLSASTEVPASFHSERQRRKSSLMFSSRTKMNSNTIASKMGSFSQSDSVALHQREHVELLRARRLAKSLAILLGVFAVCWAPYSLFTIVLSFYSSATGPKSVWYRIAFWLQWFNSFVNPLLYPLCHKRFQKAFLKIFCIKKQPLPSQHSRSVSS
UniProt P13945, sequence (whole entry, looked up): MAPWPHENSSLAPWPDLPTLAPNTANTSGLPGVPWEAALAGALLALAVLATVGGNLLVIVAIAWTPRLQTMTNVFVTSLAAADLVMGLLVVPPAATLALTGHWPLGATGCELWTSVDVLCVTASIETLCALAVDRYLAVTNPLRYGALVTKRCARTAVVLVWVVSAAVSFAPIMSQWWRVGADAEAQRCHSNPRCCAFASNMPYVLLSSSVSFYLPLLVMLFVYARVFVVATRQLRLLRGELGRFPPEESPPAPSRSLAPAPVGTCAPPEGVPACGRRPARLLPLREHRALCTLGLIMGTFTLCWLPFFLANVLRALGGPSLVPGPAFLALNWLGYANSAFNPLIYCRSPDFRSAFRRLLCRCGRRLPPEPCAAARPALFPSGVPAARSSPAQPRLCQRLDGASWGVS
UniProt P51957, sequence (whole entry, looked up): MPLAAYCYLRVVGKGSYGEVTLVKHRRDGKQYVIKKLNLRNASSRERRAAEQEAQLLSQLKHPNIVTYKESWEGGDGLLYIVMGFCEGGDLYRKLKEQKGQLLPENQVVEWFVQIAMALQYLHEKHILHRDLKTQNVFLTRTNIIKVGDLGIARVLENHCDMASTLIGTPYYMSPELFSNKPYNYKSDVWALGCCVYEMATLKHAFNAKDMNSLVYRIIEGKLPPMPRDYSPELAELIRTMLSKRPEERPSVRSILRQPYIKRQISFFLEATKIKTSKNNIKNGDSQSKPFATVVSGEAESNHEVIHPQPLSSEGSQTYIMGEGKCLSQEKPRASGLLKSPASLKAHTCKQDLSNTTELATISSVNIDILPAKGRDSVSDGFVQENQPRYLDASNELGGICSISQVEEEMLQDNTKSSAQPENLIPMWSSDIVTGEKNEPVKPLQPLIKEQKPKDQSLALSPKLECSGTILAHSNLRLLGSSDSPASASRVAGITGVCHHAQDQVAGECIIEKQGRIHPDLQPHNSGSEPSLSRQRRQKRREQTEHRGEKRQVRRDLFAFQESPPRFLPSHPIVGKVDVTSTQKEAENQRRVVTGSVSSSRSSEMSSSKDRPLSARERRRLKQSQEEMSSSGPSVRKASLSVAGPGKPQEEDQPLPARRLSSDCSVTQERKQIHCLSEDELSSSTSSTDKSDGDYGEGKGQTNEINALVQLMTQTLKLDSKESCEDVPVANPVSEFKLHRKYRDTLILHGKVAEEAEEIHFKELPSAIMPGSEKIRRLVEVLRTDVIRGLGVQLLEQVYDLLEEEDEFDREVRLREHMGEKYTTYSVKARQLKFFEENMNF
UniProt P34998, sequence (whole entry, looked up): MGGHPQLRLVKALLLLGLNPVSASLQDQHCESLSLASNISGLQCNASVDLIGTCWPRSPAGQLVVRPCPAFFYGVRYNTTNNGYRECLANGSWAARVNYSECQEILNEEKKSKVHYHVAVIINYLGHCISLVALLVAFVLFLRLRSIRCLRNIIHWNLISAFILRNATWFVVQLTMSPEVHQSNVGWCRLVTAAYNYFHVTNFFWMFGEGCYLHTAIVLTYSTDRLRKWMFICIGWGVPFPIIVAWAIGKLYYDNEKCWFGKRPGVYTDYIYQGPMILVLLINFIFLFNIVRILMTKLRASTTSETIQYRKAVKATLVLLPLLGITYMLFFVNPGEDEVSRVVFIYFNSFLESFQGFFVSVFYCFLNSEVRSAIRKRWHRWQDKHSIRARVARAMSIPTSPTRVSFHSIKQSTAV
UniProt Q6W5P4, sequence (whole entry, looked up): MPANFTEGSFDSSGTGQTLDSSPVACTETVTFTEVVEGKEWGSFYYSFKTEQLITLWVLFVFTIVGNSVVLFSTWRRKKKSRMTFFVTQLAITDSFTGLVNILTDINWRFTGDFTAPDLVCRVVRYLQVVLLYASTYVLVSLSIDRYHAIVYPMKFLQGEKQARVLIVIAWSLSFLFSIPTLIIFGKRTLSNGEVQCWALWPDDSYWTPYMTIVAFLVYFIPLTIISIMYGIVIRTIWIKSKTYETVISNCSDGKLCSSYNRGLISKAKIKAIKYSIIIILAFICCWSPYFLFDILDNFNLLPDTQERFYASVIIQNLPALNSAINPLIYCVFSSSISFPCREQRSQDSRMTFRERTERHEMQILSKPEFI
UniProt Q9NZJ5, sequence (whole entry, looked up): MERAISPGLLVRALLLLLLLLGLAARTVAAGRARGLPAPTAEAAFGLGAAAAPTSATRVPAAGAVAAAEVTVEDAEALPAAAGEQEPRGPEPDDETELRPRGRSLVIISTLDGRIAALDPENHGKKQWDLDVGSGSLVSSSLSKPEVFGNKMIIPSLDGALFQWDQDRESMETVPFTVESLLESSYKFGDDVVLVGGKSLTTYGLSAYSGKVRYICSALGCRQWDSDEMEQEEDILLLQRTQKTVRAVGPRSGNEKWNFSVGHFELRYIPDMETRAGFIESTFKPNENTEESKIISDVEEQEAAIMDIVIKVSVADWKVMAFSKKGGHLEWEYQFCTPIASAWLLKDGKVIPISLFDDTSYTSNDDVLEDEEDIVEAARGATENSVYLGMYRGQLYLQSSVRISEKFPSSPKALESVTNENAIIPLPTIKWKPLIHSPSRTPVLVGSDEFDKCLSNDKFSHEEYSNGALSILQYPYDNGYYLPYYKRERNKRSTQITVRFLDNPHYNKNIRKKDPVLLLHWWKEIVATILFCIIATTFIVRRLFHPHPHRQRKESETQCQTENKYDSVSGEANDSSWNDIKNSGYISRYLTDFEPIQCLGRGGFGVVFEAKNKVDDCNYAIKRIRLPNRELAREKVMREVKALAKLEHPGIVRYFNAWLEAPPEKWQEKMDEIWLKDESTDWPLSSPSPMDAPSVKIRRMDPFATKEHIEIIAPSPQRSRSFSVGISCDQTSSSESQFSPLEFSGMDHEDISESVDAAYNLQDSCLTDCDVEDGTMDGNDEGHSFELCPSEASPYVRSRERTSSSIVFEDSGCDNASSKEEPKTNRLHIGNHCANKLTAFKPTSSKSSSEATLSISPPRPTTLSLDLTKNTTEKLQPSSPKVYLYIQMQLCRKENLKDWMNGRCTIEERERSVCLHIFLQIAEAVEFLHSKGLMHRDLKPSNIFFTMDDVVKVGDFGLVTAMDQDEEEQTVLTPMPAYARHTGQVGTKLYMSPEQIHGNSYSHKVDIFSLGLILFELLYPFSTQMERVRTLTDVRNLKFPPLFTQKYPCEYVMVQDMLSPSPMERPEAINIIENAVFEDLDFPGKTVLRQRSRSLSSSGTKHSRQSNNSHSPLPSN
UniProt Q6P3R8, sequence (whole entry, looked up): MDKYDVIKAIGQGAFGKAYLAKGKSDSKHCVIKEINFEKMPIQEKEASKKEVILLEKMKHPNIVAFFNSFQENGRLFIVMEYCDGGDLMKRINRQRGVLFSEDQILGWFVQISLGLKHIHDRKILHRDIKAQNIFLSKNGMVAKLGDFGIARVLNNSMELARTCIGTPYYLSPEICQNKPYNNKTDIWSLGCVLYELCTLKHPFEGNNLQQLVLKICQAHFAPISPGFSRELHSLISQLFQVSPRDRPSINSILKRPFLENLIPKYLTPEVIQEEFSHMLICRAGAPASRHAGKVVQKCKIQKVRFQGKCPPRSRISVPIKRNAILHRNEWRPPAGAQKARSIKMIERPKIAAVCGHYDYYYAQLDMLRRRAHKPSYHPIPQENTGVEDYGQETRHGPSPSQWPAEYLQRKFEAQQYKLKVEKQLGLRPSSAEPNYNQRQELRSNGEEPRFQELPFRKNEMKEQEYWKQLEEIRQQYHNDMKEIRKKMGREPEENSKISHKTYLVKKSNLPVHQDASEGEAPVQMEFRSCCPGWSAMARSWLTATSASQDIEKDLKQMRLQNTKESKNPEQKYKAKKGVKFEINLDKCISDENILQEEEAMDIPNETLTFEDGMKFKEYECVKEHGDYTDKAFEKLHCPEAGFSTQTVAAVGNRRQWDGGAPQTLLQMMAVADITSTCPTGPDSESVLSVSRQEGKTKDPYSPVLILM

Sample 1 — observed: β-arrestin recruitment; mode: agonist; method: PRESTO-Tango; concentration: 10 µM; baseline: untreated
SMILES: N=C(N)NC(=O)c1cnn(-c2cccc3ncccc23)c1C1CC1
target	fold over basal
Corticotropin-releasing factor receptor 1 (CRHR1, Homo sapiens, UniProt P34998)	2.16
5-hydroxytryptamine receptor 2B (HTR2B, Homo sapiens, UniProt P41595)	1.12
Uracil nucleotide/cysteinyl leukotriene receptor (GPR17, Homo sapiens, UniProt Q13304)	0.87
Cannabinoid receptor 1 (CNR1, Homo sapiens, UniProt P21554)	1.21
Probable G-protein coupled receptor 27 (Homo sapiens, UniProt Q9NS67)	1.69
G-protein coupled receptor 87 (GPR87, Homo sapiens, UniProt Q9BY21)	1.25
GPR37 (Homo sapiens, UniProt O15354)	1.04
Neuromedin-U receptor 1 (NMUR1, Homo sapiens, UniProt Q9HB89)	1.54
Histamine H4 receptor (HRH4, Homo sapiens, UniProt Q9H3N8)	1.13 fold
Neuropeptide S receptor (NPSR1, Homo sapiens, UniProt Q6W5P4)	1.13
C-X-C chemokine receptor type 6 (CXCR6, Homo sapiens, UniProt O00574)	0.98
C3a anaphylatoxin chemotactic receptor (C3AR1, Homo sapiens, UniProt Q16581)	1.05
MRGPRD (Homo sapiens, UniProt Q8TDS7)	0.86
ADGRF1 (Homo sapiens, UniProt Q5T601)	1.13
Mu-type opioid receptor (OPRM1, Homo sapiens, UniProt P35372)	1.13
Free fatty acid receptor 2 (FFAR2, Homo sapiens, UniProt O15552)	0.74 fold
Lysophosphatidic acid receptor 6 (Homo sapiens, UniProt P43657)	0.95
2-oxoglutarate receptor 1 (OXGR1, Homo sapiens, UniProt Q96P68)	1

Sample 2 — observed: enzyme activity; mode: inhibitor; concentration: 0.5 µM; baseline: control
Target: Cyclin-dependent kinase 5, with p35 (CDK5, Homo sapiens, UniProt Q00535)
UniProt Q00535, sequence (whole entry, looked up): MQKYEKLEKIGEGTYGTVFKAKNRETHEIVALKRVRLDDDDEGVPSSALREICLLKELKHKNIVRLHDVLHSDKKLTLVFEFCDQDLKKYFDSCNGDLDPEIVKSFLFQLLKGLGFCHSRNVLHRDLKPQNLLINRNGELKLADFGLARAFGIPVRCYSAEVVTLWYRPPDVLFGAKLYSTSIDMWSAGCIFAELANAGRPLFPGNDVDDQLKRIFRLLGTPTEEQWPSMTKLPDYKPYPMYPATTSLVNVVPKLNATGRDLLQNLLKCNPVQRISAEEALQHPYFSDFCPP
SMILES	remaining activity [%]
CCCNC(=O)Nc1ccc(Oc2ncnc3cc(OC)c(OC)cc23)cc1Cl	98
CN(C)S(=O)(=O)c1ccc2c(c1)/C(=C/c1cc3c([nH]1)CCCC3)C(=O)N2	76.9
COc1cccc(-c2cc(=O)c3ccccc3o2)c1N	101
c1ccc(-c2n[nH]c3c2oc2ccccc23)cc1	85.8
O=C1Nc2ccc(Br)cc2/C1=C/c1cc2c([nH]1)CCCC2	84.6
Cc1cc(Nc2cc(N3CCN(C)CC3)nc(Sc3ccc(NC(=O)C4CC4)cc3)n2)[nH]n1	100
O=C1Nc2ccccc2/C1=C\c1c(Cl)[nH]c2ccccc12	86.7
O=C(c1cc2cc(O)ccc2[nH]1)c1cc2cc(O)ccc2[nH]1	57.3
c1ccc2c(-c3ccncc3)c[nH]c2c1	96
COc1ccc(COc2ccc(Cc3cnc(N)nc3N)cc2OC)cc1	106
Oc1cccc(-c2nc(N3CCOCC3)c3oc4ncccc4c3n2)c1	101
CCCCc1c(-c2ccc(OC)cc2)[nH]c2nccnc12	48.3
O=Nc1c(-c2c(O)[nH]c3cc(Br)ccc23)[nH]c2ccccc12	12.4
O=C1NC(=O)c2c1c1c3ccccc3[nH]c1n1cncc21	67
O=C1NC(=O)c2c1c1c3ccccc3[nH]c1c1[nH]c3cc(Br)ccc3c21	44.1
Cc1ccc(S(=O)(=O)/C=C/C#N)cc1	97
COc1ccc2c(c1)c(C1=C(c3c[nH]c4ccccc34)C(=O)NC1=O)cn2CCCN(C)C	81.4
O=c1cc(N2CCOCC2)oc2c(-c3ccccc3)cccc12	107
N#Cc1cnc2cnc(NCc3cccnc3)cc2c1Nc1ccc(F)c(Cl)c1	80.4
O=C1Cc2c([nH]c3ccc(Br)cc23)-c2ccccc2N1	70.8

Sample 3 — observed: enzyme activity; mode: inhibitor; concentration: 1 µM
SMILES: CC(C)S(=O)(=O)c1ccc2nccc(Nc3ccc4sc(C5CCCC5)nc4c3)c2c1
target	activity vs control [%]
Ephrin type-A receptor 8 (EPHA8, Homo sapiens, UniProt P29322)	100
Serine/threonine-protein kinase D2 (PRKD2, Homo sapiens, UniProt Q9BZL6)	100
Inhibitor of nuclear factor kappa-B kinase subunit beta (IKBKB, Homo sapiens, UniProt O14920)	115
Mast/stem cell growth factor receptor Kit (KIT, Homo sapiens, UniProt P10721)	80
Mitogen-activated protein kinase kinase kinase kinase 3 (MAP4K3, Homo sapiens, UniProt Q8IVH8)	95
Serine/threonine-protein kinase Nek5 (NEK5, Homo sapiens, UniProt Q6P3R8)	92.5
Serine/threonine-protein kinase mTOR (MTOR, Homo sapiens, UniProt P42345)	94.5
Serine/threonine-protein kinase Nek4 (NEK4, Homo sapiens, UniProt P51957)	95
Tyrosine-protein kinase Tec (TEC, Homo sapiens, UniProt P42680)	100
Eukaryotic translation initiation factor 2-alpha kinase 3 (EIF2AK3, Homo sapiens, UniProt Q9NZJ5)	99
Ephrin type-B receptor 1 (EPHB1, Homo sapiens, UniProt P54762)	99
Receptor-interacting serine/threonine-protein kinase 1 (RIPK1, Homo sapiens, UniProt Q13546)	87
Serine/threonine-protein kinase SIK2 (SIK2, Homo sapiens, UniProt Q9H0K1)	94
Tyrosine-protein kinase Fgr (FGR, Homo sapiens, UniProt P09769)	90.5
Tyrosine-protein kinase FRK (FRK, Homo sapiens, UniProt P42685)	72
Dual specificity mitogen-activated protein kinase kinase 6 (MAP2K6, Homo sapiens, UniProt P52564)	92
Leukocyte tyrosine kinase receptor (LTK, Homo sapiens, UniProt P29376)	104

Sample 4 — observed: cell-free assay; concentration: 10 µM
SMILES: CC(C)(C)OC(=O)N1CCCC1CNC1CCC(c2cc(F)ccc2F)(S(=O)(=O)c2ccc(Cl)cc2)CC1 (stereo not drawn)
target	inhibition
Sigma non-opioid intracellular receptor 1 (SIGMAR1, Homo sapiens, UniProt Q99720)	91.6%
Alpha-1B adrenergic receptor (ADRA1B, Homo sapiens, UniProt P35368)	41%
Muscarinic acetylcholine receptor M2 (CHRM2, Homo sapiens, UniProt P08172)	9.4%
Alpha-2A adrenergic receptor (ADRA2A, Homo sapiens, UniProt P08913)	82.3%
Beta-1 adrenergic receptor (ADRB1, Homo sapiens, UniProt P08588)	3.61%
D(4) dopamine receptor (DRD4, Homo sapiens, UniProt P21917)	20.4%
D(1A) dopamine receptor (DRD1, Homo sapiens, UniProt P21728)	13.8%
Alpha-1A adrenergic receptor (ADRA1A, Homo sapiens, UniProt P35348)	12.4%
5-hydroxytryptamine receptor 2B (HTR2B, Homo sapiens, UniProt P41595)	97.2%
Beta-2 adrenergic receptor (ADRB2, Homo sapiens, UniProt P07550)	-11.1%
Alpha-2B adrenergic receptor (ADRA2B, Homo sapiens, UniProt P18089)	77.4%
Muscarinic acetylcholine receptor M4 (CHRM4, Homo sapiens, UniProt P08173)	25.6%
Histamine H4 receptor (HRH4, Homo sapiens, UniProt Q9H3N8)	-17.1%
Histamine H2 receptor (HRH2, Homo sapiens, UniProt P25021)	53.1%
Sigma intracellular receptor 2 (TMEM97, Homo sapiens, UniProt Q5BJF2)	83.4%
Beta-3 adrenergic receptor (ADRB3, Homo sapiens, UniProt P13945)	25.6%
Muscarinic acetylcholine receptor M5 (CHRM5, Homo sapiens, UniProt P08912)	26.5%
D(3) dopamine receptor (DRD3, Homo sapiens, UniProt P35462)	86.1%
Alpha-2C adrenergic receptor (ADRA2C, Homo sapiens, UniProt P18825)	81.4%
Histamine H3 receptor (HRH3, Homo sapiens, UniProt Q9Y5N1)	26.9%

Repeated from above (sample 3):
target	activity vs control [%]
Serine/threonine-protein kinase D2 (PRKD2, Homo sapiens, UniProt Q9BZL6)	100
Inhibitor of nuclear factor kappa-B kinase subunit beta (IKBKB, Homo sapiens, UniProt O14920)	115
Mast/stem cell growth factor receptor Kit (KIT, Homo sapiens, UniProt P10721)	80
Mitogen-activated protein kinase kinase kinase kinase 3 (MAP4K3, Homo sapiens, UniProt Q8IVH8)	95
Serine/threonine-protein kinase Nek5 (NEK5, Homo sapiens, UniProt Q6P3R8)	92.5
Serine/threonine-protein kinase mTOR (MTOR, Homo sapiens, UniProt P42345)	94.5
Serine/threonine-protein kinase Nek4 (NEK4, Homo sapiens, UniProt P51957)	95
Tyrosine-protein kinase Tec (TEC, Homo sapiens, UniProt P42680)	100
Eukaryotic translation initiation factor 2-alpha kinase 3 (EIF2AK3, Homo sapiens, UniProt Q9NZJ5)	99
Ephrin type-B receptor 1 (EPHB1, Homo sapiens, UniProt P54762)	99
Receptor-interacting serine/threonine-protein kinase 1 (RIPK1, Homo sapiens, UniProt Q13546)	87
Serine/threonine-protein kinase SIK2 (SIK2, Homo sapiens, UniProt Q9H0K1)	94
